Experimental data from different studies.
Lines come from different studies, so protocols differ. Values joined by “and” are separate records of one study, mostly repeats; a detail may differ. ± marks the error that the study gave.

CN1CCN(S(=O)(=O)c2cc([N+](=O)[O-])ccc2N(CCOS(C)(=O)=O)CCOS(C)(=O)=O)CC1
glucose (naive NOD/SCID mice, pooled blood; intraperitoneal, 18.8 mg/kg, week 4): 4.4 mmol/L

COc1ccnc(C(=O)N[C@H]2COC(=O)[C@H](Cc3ccccc3)[C@@H](OC(=O)C(C)C)[C@H](C)OC2=O)c1OCOC(=O)C(C)C
KOC (FOCUS PEARL groundwater modelling; soil; geometric mean input): 5780 mL/g

CCc1ccc(CC/C=C/c2ccc3c(c2)C(=O)CC3)cc1
potassium (Sprague-Dawley rat, male, serum; oral, 450 mg/kg/day, 14 days): 4.78 mM

O=[N+]([O-])NC1=NCCN1Cc1ccc(Cl)nc1
milk fat partition ratio (cow whole milk; 20 nM; baseline: milk fat over skim milk): 0.51

[O-][S+]1CCc2nc(N3CCC(c4ncc(Cl)cn4)CC3)nc(NC3(CO)CCC3)c21 (centres unmarked)
adverse event incidence (measured: Constipation; healthy male humans; 48 mg single dose): 0%

O[C@H]1CCCN[C@@H]1CCCn1cnc2c(Cl)c(Cl)ccc21
Cmax geometric LS mean (healthy CYP2D6 intermediate metabolizers, plasma; oral, dose not given, with: pirfenidone): 385 ng/mL

CC(C)CC(=O)OC[C@H]1O[C@@](C#N)(c2ccc3c(N)ncnn23)[C@H](O)[C@@H]1O
remaining compound (dog whole blood; 5 µM, 30 min): 47.2 ± 3.3%

C[C@@H](NC(=O)N1C(=O)[C@H](Cc2ccnc(N)c2)[C@H]1C(=O)O)C1CCCCC1
incidence of serious AEs (healthy adult Chinese volunteers; continuous intravenous infusion, 0.6 mg/kg/h, 5-day infusion, CTCAE 5.0 grading): 0%

COc1ncnn2ccc(-c3cnc4nc(C)n(Cc5nnc([C@@H](C)F)o5)c4c3)c12
patients with pyrexia (human; oral, dose not given, grade 5): 0%

CO[C@H]1C[C@@H]2CC[C@@H](C)[C@@](O)(O2)C(=O)C(=O)N2CCCC[C@H]2C(=O)O[C@H]([C@H](C)C[C@@H]2CC[C@@H](OC(=O)NCCOCCOCCOCCOCCOCCOCCOCCOCCC(=O)N3CCc4cc(Cn5nc(-c6ccc7oc(N)nc7c6)c6c(N)ncnc65)ccc4C3)[C@H](OC)C2)C[C@@H](O)[C@H](C)/C=C(\C)[C@@H](O)[C@@H](OC)C(=O)[C@H](C)C[C@H](C)/C=C/C=C/C=C/1C
dose-reducing adverse events (phase 1 dose escalation, measured: neutropenia; advanced solid tumour patients; intravenous, 10 mg weekly, grade ≥3): 0%

CC(=O)c1c(C)c2cnc(Nc3ccc(C4CCN(CCS(C)(=O)=O)CC4)cn3)nc2n(C2CCCC2)c1=O
clearance (human, plasma; oral, 50 mg twice daily, day 21, multiple doses, with: letrozole): 3320 mL/min

COc1ccc2nc3cc(Cl)ccc3c(Nc3cc(CN4CCCC4)c(O)c(CN4CCCC4)c3)c2n1
plateletcrit (mouse, blood; oral, 57 mg/kg, tolerability, mean): 0.08%

CN1CC[C@@H](c2c(O)cc(O)c3c(=O)cc(-c4ccc(C(F)(F)F)cc4Cl)oc23)[C@@H]1CO
patients with adverse event (measured: Fatigue; AML; oral, 200 mg, intermittent dosing): 40%

O=S(=O)([O-])C(F)(F)C(F)(F)C(F)(F)C(F)(F)C(F)(F)C(F)(F)C(F)(F)C(F)(F)F.[K+]
mRNA level (RT-qPCR, measured: Pxr; mouse, ethanol-fed, liver; dose not given; baseline: efavirenz): increased

CCN1[C@@H](C(=O)NC23CCC(C(=O)O)(CC2)CC3)[C@H](c2cccc(Cl)c2F)[C@]2(C(=O)Nc3cc(Cl)ccc32)C12CCCCC2
Hypercholesterolemia incidence (patients with advanced solid tumours; oral, 200 mg): 0%

O=C(Nc1ccccc1)C1CCN(C(=O)Oc2cccnc2)CC1
change in Reality score (psychotropic effects VAS; healthy women; 100 mg; baseline: pre-dose baseline, direction not given): 0.3

CC(C)C[C@H](NC(=O)[C@H](CCCCN)NC(=O)OCC1c2ccccc2-c2ccccc21)C(=O)N[C@H](C(=O)N[C@@H](Cc1ccccc1)C(=O)N[C@@H](Cc1ccccc1)C(=O)N[C@@H](CCCCN)C(=O)NCC(=O)N[C@@H](Cc1ccccc1)C(=O)N[C@@H](C)C(=O)N[C@@H](Cc1c[nH]c2ccccc12)C(=O)N[C@@H](CC(N)=O)C(=O)N[C@H](C(=O)N[C@H]1CSSC[C@@H](C(=O)N[C@@H](Cc2c[nH]cn2)C(=O)N[C@@H](CCCNC(=N)N)C(=O)N[C@@H](CCCNC(=N)N)C(=O)N[C@@H](C)C(=O)N[C@@H](CC(N)=O)C(N)=O)NC(=O)[C@H](C(C)C)NC(=O)[C@H](CCCNC(=N)N)NC(=O)[C@H](C(C)C)NC(=O)CNC(=O)[C@H](CC(N)=O)NC(=O)[C@H](CCCNC(=N)N)NC(=O)[C@H](Cc2ccc(O)cc2)NC(=O)[C@H](C(C)C)NC1=O)C(C)C)C(C)C
globulin (ICR mice, serum; intraperitoneal, 5 mg/kg, day 5): 18.69 ± 0.18 g/L

CC(C)NCCCC[C@@H]1NC(=O)[C@H](Cc2ccc(O)cc2)NC(=O)[C@H](Cc2ccccc2)NC(=O)CC[C@H](C(=O)N[C@@H](CCCCNC(C)C)C(=O)N[C@@H](CCCCNC(=O)[C@H](CCC(=O)O)NC(=O)[C@H](CCC(=O)O)NC(=O)[C@H](CCC(=O)O)NC(=O)CN2CCN(CC(=O)O)CCN(CC(=O)O)CC2)C(N)=O)NC(=O)CNC(=O)[C@H](Cc2ccc3ccccc3c2)NC(=O)[C@@H](CCCNC(=N)N)NC1=O [fluorine-18 labelled]
intact compound (radio-HPLC; human serum; 2 h, 37 °C): > 99%

C1=Cc2nc1cc1ccc([n-]1)c(-c1ccccc1)c1nc(cc3ccc([n-]3)c2-c2ccccc2)C=C1.CC(=O)[O-].[Mn+3]
plasma concentration (LC-MS/MS; Sprague-Dawley rat, plasma; oral gavage, dose not given, 60 min, individual rat Rat2): 40 ng/mL

C[C@@H]1COCCN1c1cc([C@]2(O)C[C@H]3CC[C@@H](C2)O3)c2cnn(-c3cc[nH]n3)c2n1
MTD (NOD-SCID tumour-bearing mice; oral, 14 days, 2 days on 5 off weekly): 30 mg/kg

CC[C@H](C)[C@H](NC(=O)[C@H](Cc1ccccc1)NC(=O)[C@H](CCC(=O)O)NC(=O)[C@H](CCCNC(=N)N)NC(=O)[C@H](C)NC(=O)[C@H](C)NC(=O)[C@H](CCC(N)=O)NC(=O)[C@H](CCC(=O)O)NC(=O)[C@H](CCC(=O)O)NC(=O)[C@H](CC(C)C)NC(=O)[C@H](Cc1ccc(O)cc1)NC(=O)[C@H](CO)NC(=O)[C@H](CO)NC(=O)[C@@H](NC(=O)[C@H](CC(=O)O)NC(=O)[C@H](CO)NC(=O)[C@@H](NC(=O)[C@H](Cc1ccccc1)NC(=O)[C@@H](NC(=O)CNC(=O)[C@H](CCC(=O)O)NC(=O)[C@H](C)NC(=O)CCc1cnc[nH]1)[C@@H](C)O)[C@@H](C)O)C(C)C)C(=O)N[C@@H](C)C(=O)N[C@@H](Cc1c[nH]c2ccccc12)C(=O)N[C@@H](CC(C)C)C(=O)N[C@H](C(=O)N[C@@H](CCCNC(=N)N)C(=O)NCC(=O)N[C@@H](CCCNC(=N)N)C(=O)N[C@@H](CCCCNC(=O)COCCOCCNC(=O)COCCOCCNC(=O)CC[C@H](NC(=O)CCCCCCCCCCCCCCCCC(=O)O)C(=O)O)C(=O)NCC(=O)NCC(=O)N[C@@H](CO)C(=O)N[C@@H](CCCCNC(=O)[C@H](CCCCNC(=O)[C@H](CCCCNc1c(NCCCCCN(O)C(=O)CCC(=O)NCCCCCN(O)C(=O)CCC(=O)NCCCCCN(O)C(C)=O)c(=O)c1=O)Nc1c(NCCCCCN(O)C(=O)CCC(=O)NCCCCCN(O)C(=O)CCC(=O)NCCCCCN(O)C(C)=O)c(=O)c1=O)NC(=O)[C@H](CCCCNc1c(NCCCCCN(O)C(=O)CCC(=O)NCCCCCN(O)C(=O)CCC(=O)NCCCCCN(O)C(C)=O)c(=O)c1=O)Nc1c(NCCCCCN(O)C(=O)CCC(=O)NCCCCCN(O)C(=O)CCC(=O)NCCCCCN(O)C(C)=O)c(=O)c1=O)C(=O)O)C(C)C [zirconium-89 labelled]
tissue uptake (ex vivo gamma counting; Sprague-Dawley rat, male, heart; intravenous, 1 nmol, 24 h): 0.33 %ID/g and 0.327 %ID/g and 0.298 %ID/g and 0.313 %ID/g and 0.321 %ID/g

O=c1cc(-c2ccc(O)c(O)c2)oc2cc(O)cc(O)c12
urinary excreted amount, total (male Sprague-Dawley rat, lean; oral, 100 mg/kg of neohesperidin, 0 to 12 h, after β-glucuronidase/sulfatase hydrolysis): 249 ± 55.2 ng

C=CC(=O)Nc1cc(Nc2nccc(Nc3cc(Cl)c(F)cc3C(C)(C)O)n2)c(OC)cc1N1CC[C@@H](N(C)C)C1
incidence of blood creatinine increased (treatment-emergent adverse events; human; oral, 100 mg, phase I clinical trial): 11.1%

COc1cc(N2CCC(N3CCN(C)CC3)CC2)ccc1Nc1ncnc(Nc2ccccc2S(=O)(=O)C(C)C)n1
treatment-emergent adverse events (measured: Rash; Japanese patients with solid tumours; oral, dose not given, all grades): 5 number (percent)

C[C@@H]1OC(=O)NN=C1c1ccc(-c2ccc(F)cc2)c(C(F)(F)F)c1
patients with adverse event (phase I trial, measured: Fatigue all grades; human patients; 5 mg loading then 0.25 mg daily): 0%

O=C(O)CCCOc1ccc(F)cc1-c1cc(-c2ccccc2C(F)(F)F)n(-c2ccccc2)n1
mean corpuscular haemoglobin concentration (Crl:CD(SD) rats, female, blood; 25 µg/kg, 14 days): 36 g/dL and 36.4 g/dL and 36.1 g/dL

Cn1c(-c2ccc(C(N)=O)cc2F)nnc1C(C)(C)Oc1c(F)cc(Cl)cc1F
vessel puncture site pain (human; oral, 10 mg, single ascending dose): 0%

CC1(C)[C@H](C=C(Cl)Cl)[C@H]1C(=O)OCc1cccc(Oc2ccccc2)c1
enzyme contribution to clearance (measured: CYP2C8; human, age 6 months, recombinant human CYP2C8; 0.1 µM): 0.04%

O=C(Nc1ccccc1)C1CCN(C(=O)Oc2cccnc2)CC1
adverse event incidence (measured: Nausea; healthy female human; concentration not given, all doses pooled): 13%

C[C@@H]1NC(=O)[C@H](CCCCNC(=O)CO/N=C/C(=O)NCCCC[C@@H]2NC(=O)[C@@H](Cc3ccccc3)NC(=O)[C@H](CC(=O)O)NC(=O)CNC(=O)[C@H](CCCNC(=N)N)NC2=O)NC(=O)CNC(=O)[C@@H]2CCCN2C(=O)[C@H](CCCCNC(=O)CO/N=C/C(=O)NCCCC[C@@H]2NC(=O)[C@@H](Cc3ccccc3)NC(=O)[C@H](CC(=O)O)NC(=O)CNC(=O)[C@H](CCCNC(=N)N)NC2=O)NC(=O)[C@H](CCCCNC(=O)[C@H](CCCCN)NC(=O)[C@H](Cc2ccccc2)NC(=O)CNC(=O)CN2CCCNCCNCCCNCC2)NC(=O)[C@H](CCCCNC(=O)CO/N=C/C(=O)NCCCC[C@@H]2NC(=O)[C@@H](Cc3ccccc3)NC(=O)[C@H](CC(=O)O)NC(=O)CNC(=O)[C@H](CCCNC(=N)N)NC2=O)NC(=O)CNC(=O)[C@@H]2CCCN2C(=O)[C@H](CCCCNC(=O)CO/N=C/C(=O)NCCCC[C@@H]2NC(=O)[C@@H](Cc3ccccc3)NC(=O)[C@H](CC(=O)O)NC(=O)CNC(=O)[C@H](CCCNC(=N)N)NC2=O)NC1=O [copper-64 labelled]
tissue uptake (normal mice, stomach; intravenous, 0.74 MBq, 3 h post-injection): 1.91 ± 0.35 %ID/g

Cc1ccc(F)c2cc(C(=O)N[C@@H]3CCC[C@H](N4CC[C@H](N(C)S(C)(=O)=O)C4)C3)[nH]c12
plasma concentration (CD1 mouse, plasma; oral, 30 mg/kg, 2 h): 543 ng/mL

NC(=O)[C@H]1CCN(c2ncnc(N)c2F)C[C@@H]1N1CCC[C@@H](Nc2cc(Cl)cc(C(F)(F)F)c2)C1=O
grade ≥3 hypocalcaemia (B-cell malignancy patients; oral, 328 mg twice daily, dose): 0%

CC[C@H](C)CCCCC(=O)N[C@@H](CCN)C(=O)N[C@H](C(=O)N[C@@H](CCN)C(=O)N[C@H]1CCNC(=O)[C@H]([C@@H](C)O)NC(=O)[C@H](CCN)NC(=O)[C@H](CCN)NC(=O)[C@H](CC(C)C)NC(=O)[C@@H](Cc2ccccc2)NC(=O)[C@H](CCN)NC1=O)[C@@H](C)O
Cmax at steady state (critically ill patients, plasma; dose not given, median, fifth infusion): 6600 ng/mL

C=CCNc1c(O)cc2c(O)c1C[C@@H](C)C[C@H](OC)[C@H](O)[C@@H](C)/C=C(\C)[C@H](OC(N)=O)[C@@H](OC)/C=C\C=C(/C)C(=O)N2
patients with ALT increase (unresectable or metastatic sarcoma; intravenous, 90 mg/m^2, grade 3-4 lab change): 0%

C[C@]1(CO)Cc2ncn(-c3ccc(C#N)c(Cl)c3)c2C(=O)O1
drug-related Fatigue incidence (healthy humans; concentration not given, food-effect part total): 0%

COc1cc2c(Oc3ccc4[nH]c(C)cc4c3F)ccnc2cc1OCC1(N)CC1
Haematochezia incidence (paediatric refractory sarcoma patients; 8 mg): 0%

COc1ccc(-c2c(-c3ccc(C#N)c(F)c3)nc(N3CCC(N)CC3)n(C)c2=O)cc1F
treatment-related adverse event incidence (measured: Nausea; human patients; oral, dose not given, grade 3 to 4, dose escalation, NG): 0%

Clc1ccc(Cl)c(-c2cc(Cl)ccc2Cl)c1
organ weight (Sprague Dawley rat, thymus; intraperitoneal, 1 mg/kg): 0.48 g

For quick reference, copied from above:
COc1cc2c(Oc3ccc4[nH]c(C)cc4c3F)ccnc2cc1OCC1(N)CC1
Haematochezia incidence (paediatric refractory sarcoma patients; 8 mg): 0%

COc1ccc(-c2c(-c3ccc(C#N)c(F)c3)nc(N3CCC(N)CC3)n(C)c2=O)cc1F
treatment-related adverse event incidence (measured: Nausea; human patients; oral, dose not given, grade 3 to 4, dose escalation, NG): 0%

Clc1ccc(Cl)c(-c2cc(Cl)ccc2Cl)c1
organ weight (Sprague Dawley rat, thymus; intraperitoneal, 1 mg/kg): 0.48 g
